# Assay results pooled from the literature.
# Values joined by “and” are separate records of one study, mostly repeats; a detail may differ.
# MAOB: Amine oxidase [flavin-containing] B (MAOB, Homo sapiens, UniProt P27338)
# Chain of UniProt P27338 (whole entry, looked up): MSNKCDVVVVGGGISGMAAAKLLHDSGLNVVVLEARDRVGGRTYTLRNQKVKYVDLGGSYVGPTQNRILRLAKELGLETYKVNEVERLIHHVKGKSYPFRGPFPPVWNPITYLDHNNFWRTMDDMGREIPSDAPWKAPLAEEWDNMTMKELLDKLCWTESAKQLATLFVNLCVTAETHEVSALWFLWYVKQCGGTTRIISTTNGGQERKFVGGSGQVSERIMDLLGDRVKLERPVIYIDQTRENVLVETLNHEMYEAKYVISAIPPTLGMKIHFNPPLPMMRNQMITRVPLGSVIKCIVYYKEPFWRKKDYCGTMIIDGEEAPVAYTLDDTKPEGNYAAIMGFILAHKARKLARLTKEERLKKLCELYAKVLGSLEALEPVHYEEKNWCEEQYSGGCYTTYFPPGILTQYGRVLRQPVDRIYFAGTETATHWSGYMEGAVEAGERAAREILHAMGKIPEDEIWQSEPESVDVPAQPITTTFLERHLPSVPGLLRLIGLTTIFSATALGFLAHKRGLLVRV
# PADI4: Protein-arginine deiminase type-4 (PADI4, Homo sapiens, UniProt Q9UM07)
# Chain of UniProt Q9UM07 (whole entry, looked up): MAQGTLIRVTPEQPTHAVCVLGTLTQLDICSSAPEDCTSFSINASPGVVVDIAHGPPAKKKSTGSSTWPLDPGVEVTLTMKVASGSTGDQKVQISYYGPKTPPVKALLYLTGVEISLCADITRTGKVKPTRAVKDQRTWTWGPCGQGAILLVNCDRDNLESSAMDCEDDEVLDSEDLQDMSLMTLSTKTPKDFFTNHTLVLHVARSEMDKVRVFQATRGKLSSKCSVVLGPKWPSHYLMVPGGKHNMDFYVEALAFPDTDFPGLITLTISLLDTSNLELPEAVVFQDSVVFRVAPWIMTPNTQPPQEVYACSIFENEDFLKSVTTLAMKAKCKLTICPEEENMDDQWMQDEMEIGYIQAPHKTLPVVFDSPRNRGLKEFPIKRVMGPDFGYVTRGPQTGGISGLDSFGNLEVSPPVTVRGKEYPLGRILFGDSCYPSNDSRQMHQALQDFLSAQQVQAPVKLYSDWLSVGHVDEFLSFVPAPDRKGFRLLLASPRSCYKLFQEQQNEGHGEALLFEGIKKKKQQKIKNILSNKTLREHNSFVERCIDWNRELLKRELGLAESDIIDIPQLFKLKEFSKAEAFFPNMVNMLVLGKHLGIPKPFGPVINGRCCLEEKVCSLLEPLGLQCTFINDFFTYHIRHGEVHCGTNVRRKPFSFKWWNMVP
# CSNK1A1: Casein kinase I isoform alpha (CSNK1A1, Homo sapiens, UniProt P48729)
# Chain of UniProt P48729 (whole entry, looked up): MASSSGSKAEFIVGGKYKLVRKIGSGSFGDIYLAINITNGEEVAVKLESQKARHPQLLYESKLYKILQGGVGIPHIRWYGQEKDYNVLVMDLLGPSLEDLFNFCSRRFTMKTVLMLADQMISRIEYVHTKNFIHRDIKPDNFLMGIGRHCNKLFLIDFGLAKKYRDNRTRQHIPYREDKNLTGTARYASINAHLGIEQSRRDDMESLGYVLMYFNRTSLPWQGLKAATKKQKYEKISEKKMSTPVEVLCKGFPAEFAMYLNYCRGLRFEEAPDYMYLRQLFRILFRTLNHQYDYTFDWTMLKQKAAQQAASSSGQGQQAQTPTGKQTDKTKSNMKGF
# CREBBP bromodomain: CREB-binding protein, bromodomain (CREBBP, Homo sapiens, UniProt Q92793)
# Chain of UniProt P51575 (whole entry, unmodified, looked up): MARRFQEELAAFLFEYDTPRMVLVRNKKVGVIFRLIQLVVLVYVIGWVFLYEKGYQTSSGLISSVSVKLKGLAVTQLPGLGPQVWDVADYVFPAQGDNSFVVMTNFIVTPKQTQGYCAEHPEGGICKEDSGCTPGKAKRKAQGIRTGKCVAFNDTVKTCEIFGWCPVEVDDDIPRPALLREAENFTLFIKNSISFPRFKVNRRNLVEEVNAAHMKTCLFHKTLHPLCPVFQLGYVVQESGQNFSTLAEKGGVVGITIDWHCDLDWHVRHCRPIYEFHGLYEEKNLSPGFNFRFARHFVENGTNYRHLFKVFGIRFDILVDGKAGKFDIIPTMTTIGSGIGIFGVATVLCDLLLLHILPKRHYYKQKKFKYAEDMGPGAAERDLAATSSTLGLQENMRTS
# Chain of UniProt Q16774 (whole entry, unmodified, looked up): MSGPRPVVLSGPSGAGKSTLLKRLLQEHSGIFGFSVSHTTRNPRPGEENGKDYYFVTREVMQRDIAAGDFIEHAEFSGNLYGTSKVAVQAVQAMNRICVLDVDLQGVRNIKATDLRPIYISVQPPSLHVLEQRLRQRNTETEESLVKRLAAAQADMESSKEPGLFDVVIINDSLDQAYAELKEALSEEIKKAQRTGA
# Chain of UniProt Q92793 (whole entry, looked up): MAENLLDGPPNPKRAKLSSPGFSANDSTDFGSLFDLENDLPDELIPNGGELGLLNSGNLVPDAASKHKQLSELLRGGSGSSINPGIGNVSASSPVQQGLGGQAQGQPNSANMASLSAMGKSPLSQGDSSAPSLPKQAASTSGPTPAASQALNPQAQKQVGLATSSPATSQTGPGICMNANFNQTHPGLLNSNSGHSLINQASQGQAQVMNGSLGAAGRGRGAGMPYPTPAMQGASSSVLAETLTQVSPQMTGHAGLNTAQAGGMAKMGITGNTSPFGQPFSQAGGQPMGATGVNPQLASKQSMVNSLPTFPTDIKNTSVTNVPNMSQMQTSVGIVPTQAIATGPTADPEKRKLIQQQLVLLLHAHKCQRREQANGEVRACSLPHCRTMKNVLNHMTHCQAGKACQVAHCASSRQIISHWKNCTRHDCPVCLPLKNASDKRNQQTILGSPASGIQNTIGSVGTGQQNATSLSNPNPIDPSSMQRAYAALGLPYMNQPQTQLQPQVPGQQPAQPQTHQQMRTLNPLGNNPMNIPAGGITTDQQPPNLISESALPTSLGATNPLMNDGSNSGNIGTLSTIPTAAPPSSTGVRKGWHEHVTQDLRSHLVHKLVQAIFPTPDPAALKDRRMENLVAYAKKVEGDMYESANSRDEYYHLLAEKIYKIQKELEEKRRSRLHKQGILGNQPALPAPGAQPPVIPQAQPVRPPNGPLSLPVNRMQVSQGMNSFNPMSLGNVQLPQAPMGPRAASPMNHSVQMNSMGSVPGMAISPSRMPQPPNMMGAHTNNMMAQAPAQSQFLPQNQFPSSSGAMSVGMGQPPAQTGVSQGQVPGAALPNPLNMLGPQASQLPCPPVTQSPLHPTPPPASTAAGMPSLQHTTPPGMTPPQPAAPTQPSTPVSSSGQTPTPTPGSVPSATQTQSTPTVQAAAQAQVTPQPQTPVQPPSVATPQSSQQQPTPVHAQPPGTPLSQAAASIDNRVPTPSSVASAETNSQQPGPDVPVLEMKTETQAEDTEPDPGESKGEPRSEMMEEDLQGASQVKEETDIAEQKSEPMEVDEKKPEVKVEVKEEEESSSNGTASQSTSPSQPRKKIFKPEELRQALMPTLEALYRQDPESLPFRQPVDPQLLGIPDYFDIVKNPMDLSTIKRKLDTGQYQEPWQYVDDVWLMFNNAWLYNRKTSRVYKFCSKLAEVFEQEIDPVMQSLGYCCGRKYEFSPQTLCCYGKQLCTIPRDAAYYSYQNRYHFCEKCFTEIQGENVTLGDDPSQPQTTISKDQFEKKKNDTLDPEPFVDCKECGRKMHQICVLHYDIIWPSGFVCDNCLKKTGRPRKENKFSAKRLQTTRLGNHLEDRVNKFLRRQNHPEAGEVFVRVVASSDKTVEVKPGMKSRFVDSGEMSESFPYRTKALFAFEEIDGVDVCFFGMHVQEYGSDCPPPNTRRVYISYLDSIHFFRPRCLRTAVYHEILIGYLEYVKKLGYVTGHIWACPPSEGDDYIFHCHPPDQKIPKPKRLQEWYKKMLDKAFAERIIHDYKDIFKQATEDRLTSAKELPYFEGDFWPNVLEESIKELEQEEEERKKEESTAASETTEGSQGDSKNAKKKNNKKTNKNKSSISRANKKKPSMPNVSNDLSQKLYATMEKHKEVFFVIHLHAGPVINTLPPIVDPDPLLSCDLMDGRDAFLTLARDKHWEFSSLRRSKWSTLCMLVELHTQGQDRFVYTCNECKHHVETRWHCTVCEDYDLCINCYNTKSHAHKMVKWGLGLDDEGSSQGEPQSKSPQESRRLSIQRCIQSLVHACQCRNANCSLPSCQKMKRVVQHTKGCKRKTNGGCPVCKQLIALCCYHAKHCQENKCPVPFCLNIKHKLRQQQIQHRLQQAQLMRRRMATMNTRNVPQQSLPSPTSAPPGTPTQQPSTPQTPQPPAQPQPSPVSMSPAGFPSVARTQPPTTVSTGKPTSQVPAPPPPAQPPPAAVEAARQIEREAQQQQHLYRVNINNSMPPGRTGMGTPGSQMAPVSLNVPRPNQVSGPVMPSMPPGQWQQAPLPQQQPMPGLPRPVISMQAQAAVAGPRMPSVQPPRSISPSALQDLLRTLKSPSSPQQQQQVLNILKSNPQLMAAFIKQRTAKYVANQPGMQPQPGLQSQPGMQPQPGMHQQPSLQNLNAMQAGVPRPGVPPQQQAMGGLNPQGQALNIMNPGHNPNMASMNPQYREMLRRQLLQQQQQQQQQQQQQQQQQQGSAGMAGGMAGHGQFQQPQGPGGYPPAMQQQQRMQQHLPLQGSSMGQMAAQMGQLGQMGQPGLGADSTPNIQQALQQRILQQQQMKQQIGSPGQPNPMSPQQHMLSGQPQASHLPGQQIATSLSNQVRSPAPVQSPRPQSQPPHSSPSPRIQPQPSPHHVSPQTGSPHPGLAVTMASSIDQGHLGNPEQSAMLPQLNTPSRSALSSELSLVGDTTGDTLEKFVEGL
SMILES,target or system,assay,system,setting,how to read,endpoint,value
O=C(Nc1ccc(F)c(F)c1)c1ccc2c(c1)C(=O)NC2=O,MAOB,,,,reference: IC50 MAO-A over IC50 MAO-B,selectivity ratio,> 1670
COc1ccc(C[C@H](N)C(=O)N[C@H]2[C@@H](O)[C@H](n3cnc4c(N(C)C)ncnc43)O[C@@H]2CO)cc1,"Puromycin-sensitive aminopeptidase (Homo sapiens, UniProt P55786)","enzyme activity, fluorescence",,with: Ala-4-MNA substrate,reference: APN IC50 over PSA IC50,selectivity ratio,4.3 fold
N=C(CCl)NCCC[C@H](NC(=O)c1ccc2cc(-c3ccc4nncn4c3)ccc2c1)C(=O)NCc1ccccc1,PADI4,,,,reference: PAD4 IC50 over PAD1 IC50,selectivity ratio,0.949
Nc1ncnc2c1ncn2[C@@H]1O[C@H](COP(=O)(O)CP(=O)(O)OP(=O)(O)O)[C@@H](O)[C@H]1O,"P2X purinoceptor 1 (P2RX1, Homo sapiens, UniProt P51575, D170A)",calcium influx,,10 µM,reference: ionomycin response,calcium influx,100% and 76.8% and 67% and 74.2%
Cn1cc(-c2ccc(-c3cncc(Cl)c3N3CCC4(CCNC4=O)CC3)cc2)cn1,COLO 205,"gene expression, microarray, item: EIF4EBP1 mRNA",,"concentration not given, 6 h",reference: untreated cells,log2 fold change,1.22
Cn1cc(-c2ccnc3ccccc23)c(-c2ccccn2)n1,CSNK1A1,"enzyme activity, ADP-Glo",,,reference: IC50 over Yck2 IC50,selectivity ratio,3
Nc1nc2c(ncn2[C@@H]2O[C@H](COP(=O)(O)O)[C@@H](O)[C@H]2O)c(=O)[nH]1,"GUK1, part: ADP-bound (Homo sapiens, UniProt Q16774)","binding, ITC",,with: ADP 0.5 mM,,-TΔS,16.2 kJ/mol and 11.8 kJ/mol and 22.4 kJ/mol
CC(C)C(=O)C(=O)O,,"binding, MIDAS equilibrium dialysis LC-MS",A2AR-BRIL thermostabilized,concentration not given,reference: no-protein control,log2 fold change,-2.2
c1ccc(-c2n[nH]cc2-c2ccncc2)nc1,CSNK1A1,"enzyme activity, ADP-Glo",,,reference: IC50 over Yck2 IC50,selectivity ratio,6
COc1ccc(C=C2SC(=O)N(C(C)C(=O)O)C2=O)cc1 (stereo not drawn),"Ubiquitin carboxyl-terminal hydrolase 16, ZnF-UBD domain (USP16, Homo sapiens, UniProt Q9Y5T5)",,,,,Kd,116 µM
NCCCCN=C(N)N,,"binding, MIDAS equilibrium dialysis LC-MS",A2AR-BRIL thermostabilized,concentration not given,reference: no-protein control,log2 fold change,-0.00783
N=C(CCl)NCCC[C@H](NC(=O)c1ccc2ccc(O)cc2c1)C(=O)NCc1ccccc1,PADI4,,,,reference: PAD4 IC50 over PAD1 IC50,selectivity ratio,0.648 to 0.879
O=C(Nc1ccc(F)c(Cl)c1)c1ccc2c(c1)C(=O)NC2=O,MAOB,,,,reference: IC50 MAO-A over IC50 MAO-B,selectivity ratio,> 2670
Cn1nnc2ccc(NC(=O)c3cccc(C(=O)O)c3)cc21,CREBBP bromodomain,"binding, BROMOscan competition binding",,,reference: Kd BRD4 bromodomain 1 over Kd CBP bromodomain,selectivity ratio,0.4
O=C(Nc1ccc(Cl)c(F)c1)c1ccc2c(c1)C(=O)NC2=O,MAOB,,,,reference: IC50 MAO-A over IC50 MAO-B,selectivity ratio,> 1380
CCCCCOc1ccc2ccc(C(=O)N[C@@H](CCCNC(=N)CCl)C(=O)NCc3ccccc3)cc2c1,PADI4,,,,reference: PAD4 IC50 over PAD1 IC50,selectivity ratio,0.434
Cn1cc(C(=O)Nc2cccc(C(=O)O)c2)ccc1=O,CREBBP bromodomain,"binding, BROMOscan competition binding",,,reference: Kd BRD4 bromodomain 1 over Kd CBP bromodomain,selectivity ratio,8
CNc1nc(C#Cc2ccc(Cl)s2)nc2c1ncn2[C@H]1[C@H](O)[C@H](O)[C@]2(CC#N)C[C@H]12,"SLC6A3 (Homo sapiens, UniProt Q01959)",,,,reference: NET EC50 over DAT EC50,selectivity ratio,23 fold

# A few entries again:
SMILES,target or system,assay,system,setting,how to read,endpoint,value
COc1ccc(C[C@H](N)C(=O)N[C@H]2[C@@H](O)[C@H](n3cnc4c(N(C)C)ncnc43)O[C@@H]2CO)cc1,"Puromycin-sensitive aminopeptidase (Homo sapiens, UniProt P55786)","enzyme activity, fluorescence",,with: Ala-4-MNA substrate,reference: APN IC50 over PSA IC50,selectivity ratio,4.3 fold
Nc1ncnc2c1ncn2[C@@H]1O[C@H](COP(=O)(O)CP(=O)(O)OP(=O)(O)O)[C@@H](O)[C@H]1O,"P2X purinoceptor 1 (P2RX1, Homo sapiens, UniProt P51575, D170A)",calcium influx,,10 µM,reference: ionomycin response,calcium influx,100% and 76.8% and 67% and 74.2%
c1ccc(-c2n[nH]cc2-c2ccncc2)nc1,CSNK1A1,"enzyme activity, ADP-Glo",,,reference: IC50 over Yck2 IC50,selectivity ratio,6
